Values quoted from earlier work that unrelated publications cite.
Numbers after ± are the reported error.
Chain of UniProt P00390 (whole entry, looked up): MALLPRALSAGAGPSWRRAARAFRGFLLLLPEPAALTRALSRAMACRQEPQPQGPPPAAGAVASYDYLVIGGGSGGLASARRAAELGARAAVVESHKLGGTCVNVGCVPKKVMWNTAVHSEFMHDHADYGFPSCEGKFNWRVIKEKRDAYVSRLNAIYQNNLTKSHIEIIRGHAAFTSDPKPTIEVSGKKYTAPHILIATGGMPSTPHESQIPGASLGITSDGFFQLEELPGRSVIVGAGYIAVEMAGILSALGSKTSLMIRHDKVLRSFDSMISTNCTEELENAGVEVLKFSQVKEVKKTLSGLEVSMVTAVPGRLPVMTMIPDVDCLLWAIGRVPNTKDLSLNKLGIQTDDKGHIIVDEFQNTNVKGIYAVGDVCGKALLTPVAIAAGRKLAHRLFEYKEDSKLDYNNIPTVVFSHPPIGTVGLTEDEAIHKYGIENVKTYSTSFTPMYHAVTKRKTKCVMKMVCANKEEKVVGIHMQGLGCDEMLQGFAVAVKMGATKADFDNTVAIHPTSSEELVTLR
Chain of UniProt Q96RJ0 (whole entry, looked up): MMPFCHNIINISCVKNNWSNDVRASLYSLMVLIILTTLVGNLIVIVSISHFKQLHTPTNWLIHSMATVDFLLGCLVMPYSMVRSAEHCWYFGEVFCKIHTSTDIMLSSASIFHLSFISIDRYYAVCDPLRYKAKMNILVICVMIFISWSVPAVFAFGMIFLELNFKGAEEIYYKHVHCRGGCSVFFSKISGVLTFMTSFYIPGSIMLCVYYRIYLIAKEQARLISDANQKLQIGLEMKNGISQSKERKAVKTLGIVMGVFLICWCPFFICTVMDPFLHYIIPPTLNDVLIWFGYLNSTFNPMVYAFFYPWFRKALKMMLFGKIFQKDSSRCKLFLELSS
Chain of UniProt Q8IXJ6 (whole entry, looked up): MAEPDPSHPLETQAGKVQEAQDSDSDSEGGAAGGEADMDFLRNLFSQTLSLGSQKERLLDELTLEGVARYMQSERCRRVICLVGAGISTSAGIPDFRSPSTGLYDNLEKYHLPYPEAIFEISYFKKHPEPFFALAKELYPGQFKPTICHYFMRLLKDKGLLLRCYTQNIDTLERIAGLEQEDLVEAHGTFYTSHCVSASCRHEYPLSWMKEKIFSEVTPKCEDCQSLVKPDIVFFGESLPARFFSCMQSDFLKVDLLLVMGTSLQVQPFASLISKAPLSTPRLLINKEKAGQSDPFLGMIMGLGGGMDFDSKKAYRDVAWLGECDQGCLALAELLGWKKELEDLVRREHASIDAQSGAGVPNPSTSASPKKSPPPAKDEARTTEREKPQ
Chain of UniProt O76083 (whole entry, looked up): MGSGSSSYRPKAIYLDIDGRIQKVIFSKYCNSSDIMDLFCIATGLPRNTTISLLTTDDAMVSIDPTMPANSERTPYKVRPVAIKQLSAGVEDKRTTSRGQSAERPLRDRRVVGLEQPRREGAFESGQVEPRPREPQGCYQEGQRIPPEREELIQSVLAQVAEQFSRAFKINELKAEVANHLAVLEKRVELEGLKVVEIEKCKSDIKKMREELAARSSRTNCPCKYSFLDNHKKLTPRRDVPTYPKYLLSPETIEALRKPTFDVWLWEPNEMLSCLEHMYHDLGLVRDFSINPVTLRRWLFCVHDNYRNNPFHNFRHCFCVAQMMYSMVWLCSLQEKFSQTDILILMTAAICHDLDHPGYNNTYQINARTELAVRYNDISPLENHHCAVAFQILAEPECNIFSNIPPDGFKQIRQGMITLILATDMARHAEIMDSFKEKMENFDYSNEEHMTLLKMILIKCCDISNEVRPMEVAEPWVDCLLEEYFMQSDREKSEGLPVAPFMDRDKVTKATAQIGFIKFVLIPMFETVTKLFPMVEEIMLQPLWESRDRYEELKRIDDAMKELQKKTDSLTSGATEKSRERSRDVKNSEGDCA
Chain of UniProt P52500 (whole entry, looked up): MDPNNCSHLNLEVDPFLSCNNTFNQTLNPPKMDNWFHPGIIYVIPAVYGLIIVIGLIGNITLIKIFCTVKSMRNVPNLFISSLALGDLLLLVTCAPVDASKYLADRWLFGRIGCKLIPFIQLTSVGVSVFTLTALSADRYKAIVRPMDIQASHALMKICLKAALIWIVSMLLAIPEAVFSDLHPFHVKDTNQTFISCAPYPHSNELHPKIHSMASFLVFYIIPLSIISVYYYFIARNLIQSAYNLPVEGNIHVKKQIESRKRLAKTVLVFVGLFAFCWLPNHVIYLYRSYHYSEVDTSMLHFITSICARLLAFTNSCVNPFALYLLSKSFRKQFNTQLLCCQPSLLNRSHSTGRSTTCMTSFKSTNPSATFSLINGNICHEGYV
Chain of UniProt O77389 (whole entry, looked up): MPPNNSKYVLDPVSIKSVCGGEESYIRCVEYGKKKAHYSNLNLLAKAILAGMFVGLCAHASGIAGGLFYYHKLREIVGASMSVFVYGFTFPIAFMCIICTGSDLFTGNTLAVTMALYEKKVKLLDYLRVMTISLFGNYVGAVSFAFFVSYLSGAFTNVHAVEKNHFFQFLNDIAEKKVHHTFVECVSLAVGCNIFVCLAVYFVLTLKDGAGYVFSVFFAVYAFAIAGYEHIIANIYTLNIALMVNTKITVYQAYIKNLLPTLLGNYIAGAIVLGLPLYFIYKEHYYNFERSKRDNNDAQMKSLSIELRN
Chain of UniProt Q9NTG7 (whole entry, looked up): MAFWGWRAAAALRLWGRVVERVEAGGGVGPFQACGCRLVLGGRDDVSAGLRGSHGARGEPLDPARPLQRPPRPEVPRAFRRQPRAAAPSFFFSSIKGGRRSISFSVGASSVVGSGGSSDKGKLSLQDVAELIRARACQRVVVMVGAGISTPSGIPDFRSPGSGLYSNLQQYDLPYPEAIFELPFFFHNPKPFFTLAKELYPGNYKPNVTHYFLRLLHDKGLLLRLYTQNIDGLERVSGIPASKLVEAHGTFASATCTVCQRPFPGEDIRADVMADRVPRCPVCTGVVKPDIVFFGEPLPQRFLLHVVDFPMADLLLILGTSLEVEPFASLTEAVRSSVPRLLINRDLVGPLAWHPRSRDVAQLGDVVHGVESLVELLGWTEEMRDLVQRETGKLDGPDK

Structure (SMILES)	target	test	test system	setting	IC50 [µM]
COc1ccc(C2CC3(CN(CC(=O)O)C(=O)O3)c3cc(Br)ccc3O2)cc1 (centres unmarked)	Akr1b1 (Rattus norvegicus, UniProt P07943)	enzyme activity, inhibitor	–	–	0.58
C=CC(=O)N1CCC[C@@H](n2nc(-c3ccc4ccccc4c3)c3c(N)ncnc32)C1	EGFR (Homo sapiens, UniProt P00533, L858R/T790M)	–	–	–	< 0.001
C[C@@H](c1cc(OCC(F)F)ccn1)n1cnc2c(N)nc(Cl)nc21	PDE9A (Homo sapiens, UniProt O76083)	enzyme activity	–	–	> 10
O=c1cc(N2CCOCC2)oc2c(-c3cccc4c3sc3ccccc34)cccc12	DNA-dependent protein kinase	enzyme activity, inhibitor	–	–	0.014
Nc1ccn(C2OC(CO)C(O)C2O)c(=O)n1 (centres unmarked)	yeast alpha-glucosidase	inhibitor	–	–	10.3
O=C(Nc1ccccc1)[C@]12C[C@H]1/C(=N\O)c1ccccc1O2	GRM1 (Homo sapiens, UniProt Q13255)	negative allosteric modulator	–	–	2.1
Cc1[nH]c(C(=O)Nc2ccc(C(=O)NCC(=O)O)cc2)c(Cl)c1Cl	gyrB (Escherichia coli, UniProt P0AES6)	enzyme activity, inhibitor	–	–	0.28
CC1=C(C(=O)c2ccc([N+](=O)[O-])cc2)C(=O)c2ccccc2C1=O	GSR (Homo sapiens, UniProt P00390)	enzyme activity, inhibitor	–	–	0.4
NS(=O)(=O)c1ccc(N2N=C(C(F)(F)F)CC2c2ccc(F)cc2F)cc1 (centres unmarked)	COX-1 (rat seminal vesicles)	enzyme activity, inhibitor	–	–	334
O=[N+]([O-])c1ccccc1CO[C@@H](CO)[C@H](O)C[S@@+]1C[C@@H](O)[C@H](O)[C@H]1CO	rat intestinal maltase	maltase activity, inhibitor	rat intestinal disaccharidases	–	0.13
N#Cc1c(C(F)(F)F)cc(-c2ccc(Cl)cc2)nc1SCC(=O)Nc1ncco1	TAAR1 (Homo sapiens, UniProt Q96RJ0)	antagonist, calcium mobilization	–	–	0.206
Cc1cccc(C)c1NC(=O)C1CCN(Cc2ccccc2)C1 (centres unmarked)	SCN4A (Homo sapiens, UniProt P35499)	sodium current, blocker	–	tonic block, 0.1 Hz	67 ± 5
CC(C)C[C@@H](CN[C@H](Cc1ccccc1)C(N)=O)NC(=O)[C@H](Cc1c[nH]cn1)NC(=O)CNC(=O)[C@@H](NC(=O)[C@H](C)NC(=O)[C@H](Cc1c[nH]c2ccccc12)NC(=O)[C@H](CCC(N)=O)NC(=O)[C@H](N)Cc1ccccc1)C(C)C	Gastrin-releasing peptide receptor (Rattus norvegicus, UniProt P52500)	binding	–	literature species comparison	0.062 ± 0.01
C#CCCCC1(CCC(=O)N[C@@H](CCCCNC(=S)CCC(=O)O)C(=O)N[C@@H](C)C(=O)N[C@@H](C)C(=O)OC)N=N1	SIRT2 (Homo sapiens, UniProt Q8IXJ6)	enzyme activity, inhibitor	–	–	> 5000
COc1ccc(C(=O)/C=C(\O)C(F)(F)C(F)(F)F)c(O)c1	Formate-nitrite transporter (Plasmodium falciparum, UniProt O77389)	L-lactate transport	yeast expressing wild type	–	0.17 ± 0.01
C#CCOc1ccc(C(=O)c2ccc(C(=O)N[C@@H](CCCCNC(=S)CCCCCCCCCCCCC)C(=O)N[C@@H](C)C(=O)N[C@@H](C)C(=O)OC)cc2)cc1	SIRT3 (Homo sapiens, UniProt Q9NTG7)	deacetylase activity, inhibitor, HPLC	–	with: H3K9ac substrate	> 5000
Clc1ccccc1C1Nc2ccc3ccccc3c2C2C=CCC21 (centres unmarked)	androgen receptor	transcriptional activity	–	–	2.4

Some of these lines once more:
Structure (SMILES)	target	test	test system	setting	IC50 [µM]
O=c1cc(N2CCOCC2)oc2c(-c3cccc4c3sc3ccccc34)cccc12	DNA-dependent protein kinase	enzyme activity, inhibitor	–	–	0.014
C[C@@H](c1cc(OCC(F)F)ccn1)n1cnc2c(N)nc(Cl)nc21	PDE9A (Homo sapiens, UniProt O76083)	enzyme activity	–	–	> 10
